{"data": "Published values collected from several papers", "note": "Lines come from different studies, so protocols differ. “And” joins repeats or separate records; there may be more than shown."}
{"Compound": "Nc1ncnc2c1ncn2[C@H]1C[C@H](O)[C@@H](COP(=O)(O)OP(=O)(O)OP(=O)(O)O)O1", "assay": "binding, equilibrium dialysis LC-MS", "conditions": "5 µM, thermostabilized A2AR-BRIL construct", "scale": "baseline: no-protein control, direction not given", "quantity": "z-scored log2 fold change", "result": -0.109}
{"Compound": "COc1ccc(-c2nc(N3CCOCC3)c3sc(CN(C)c4ncc(C(=O)NO)cn4)cc3n2)cn1", "tested on": "human alphaherpesvirus 1", "system": "K26 GFP, 3D skin equivalent, air-liquid", "scale": "baseline: CC50 over IC50", "quantity": "selectivity index", "result": "> 250"}
{"Compound": "CCCc1nn(C)c2c(=O)[nH]c(-c3cc(S(=O)(=O)N4CCN(C)CC4)ccc3OCC)nc12", "tested on": "Cryptosporidium parvum", "assay": "parasite growth, immunofluorescence imaging", "system": "HCT-8, Iowa", "conditions": "24.7 nM", "quantity": "inhibition", "result": "-29% and -17.7%"}
{"Compound": "CNC(C)C1CCC(N)C(OC2C(N)CC(N)C(OC3OCC(C)(O)C(NC)C3O)C2O)O1 (centres unmarked)", "tested on": "Pseudomonas aeruginosa", "system": "clinical isolate RKI-No_598/16", "quantity": "MIC", "result": "4 µg/mL"}
{"Compound": "COC(=O)[C@@H](CCSC)NCc1cc2ccccc2nc1SC", "tested on": "Pseudomonas aeruginosa", "conditions": "8 µg/mL, without pentamidine", "scale": "baseline: control", "quantity": "growth", "result": "95.7%"}
{"Compound": "C=CC(=O)N1CC/C(=C\\c2ccc(F)c([N+](=O)[O-])c2)C(=O)/C(=C/c2ccc(F)c([N+](=O)[O-])c2)C1", "tested on": "human alphaherpesvirus 1", "assay": "viral replication, GFP signal", "system": "K26 GFP, 3D skin equivalent, air-liquid", "conditions": "48 h", "quantity": "IC50", "result": "150 nM"}
{"Compound": "O=C(O)c1cc(=O)[nH]c(=O)n1[C@@H]1O[C@H](COP(=O)(O)O)[C@@H](O)[C@H]1O", "assay": "binding, equilibrium dialysis LC-MS", "conditions": "5 µM, thermostabilized A2AR-BRIL construct", "scale": "baseline: no-protein control, direction not given", "quantity": "z-scored log2 fold change", "result": 0.114}
{"Compound": "CCn1c(=O)c(-c2cc[nH]n2)cc2c(C)nc(N)nc21", "tested on": "Coxsackievirus B4", "assay": "viral replication, RT-qPCR", "system": "HeLa, CVB4-5", "conditions": "concentration not given, 20 h", "quantity": "viral RNA level", "result": "decreased"}
{"Compound": "O=C(Nc1ccc([N+](=O)[O-])cc1Cl)c1cc(Cl)ccc1O", "tested on": "human alphaherpesvirus 1", "system": "K26 GFP, 3D skin equivalent, air-liquid", "scale": "baseline: CC50 over IC50", "quantity": "selectivity index", "result": "> 90.9"}
{"Compound": "CN[C@H](CC(C)C)C(=O)N[C@H]1C(=O)N[C@@H](CC(N)=O)C(=O)N[C@H]2C(=O)N[C@H]3C(=O)N[C@H](C(=O)N[C@H](C(=O)O)c4cc(O)cc(O)c4-c4cc3ccc4O)[C@H](O)c3ccc(c(Cl)c3)Oc3cc2cc(c3O[C@@H]2O[C@H](CO)[C@@H](O)[C@H](O)[C@H]2O[C@H]2C[C@](C)(N)[C@H](O)[C@H](C)O2)Oc2ccc(cc2Cl)[C@H]1O", "tested on": "Staphylococcus haemolyticus", "system": "mouse systemic infection", "conditions": "intravenous", "scale": "survival", "quantity": "ED50", "result": "9.96 mg/kg"}
{"Compound": "Nc1nc(-c2ccccc2)nc2[nH]nc(Nc3ccc(C(F)(F)F)cc3)c12", "tested on": "coxsackievirus B3", "system": "31-1-93, NMRI mice, CVB3 chronic myocarditis", "conditions": "oral, 100 mg/kg twice daily, day 21, dosed days 3 to 10, score scale 0 to 7", "scale": "direction not given", "quantity": "clinical score", "result": 0.4}
{"note": "For quick reference, copied from above:"}
{"Compound": "Nc1ncnc2c1ncn2[C@H]1C[C@H](O)[C@@H](COP(=O)(O)OP(=O)(O)OP(=O)(O)O)O1", "assay": "binding, equilibrium dialysis LC-MS", "conditions": "5 µM, thermostabilized A2AR-BRIL construct", "scale": "baseline: no-protein control, direction not given", "quantity": "z-scored log2 fold change", "result": -0.109}
